Experimental data of several laboratories.
± marks the error that the study gave.
DLG4: DLG4 309-422 (Homo sapiens, UniProt P78352)
B1: POLQ helicase and polymerase, central domain replaced 1-898 del899-1789 (Homo sapiens, UniProt O75417); Red-tris-NHS label; chain MNLLRRSGKRRRSESGSDSFSGSGGDSSASPQFLSGSVLSPPPGLGRCLKAAAAGECKPTVPDYERDKLLLANWGLPKAVLEKYHSFGVKKMFEWQAECLLLGQVLEGKNLVYSAPTSAGKTLVAELLILKRVLEMRKKALFILPFVSVAKEKKYYLQSLFQEVGIKVDGYMGSTSPSRHFSSLDIAVCTIERANGLINRLIEENKMDLLGMVVVDELHMLGDSHRGYLLELLLTKICYITRKSASCQADLASSLSNAVQIVGMSATLPNLELVASWLNAELYHTDFRPVPLLESVKVGNSIYDSSMKLVREFEPMLQVKGDEDHVVSLCYETICDNHSVLLFCPSKKWCEKLADIIAREFYNLHHQAEGLVKPSECPPVILEQKELLEVMDQLRRLPSGLDSVLQKTVPWGVAFHHAGLTFEERDIIEGAFRQGLIRVLAATSTLSSGVNLPARRVIIRTPIFGGRPLDILTYKQMVGRAGRKGVDTVGESILICKNSEKSKGIALLQGSLKPVRSCLQRREGEEVTGSMIRAILEIIVGGVASTSQDMHTYAACTFLAASMKEGKQGIQRNQESVQLGAIEACVMWLLENEFIQSTEASDGTEGKVYHPTHLGSATLSSSLSPADTLDIFADLQRAMKGFVLENDLHILYLVTPMFEDWTTIDWYRFFCLWEKLPTSMKRVAELVGVEEGFLARCVKGKVVARTERQHRQMAIHKRFFTSLVLLDLISEVPLREINQKYGCNRGQIQSLQQSAAVYAGMITVFSNRLGWHNMELLLSQFQKRLTFGIQRELCDLVRVSLLNAQRARVLYASGFHTVADLARANIVEVEVILKNAVPFKSARKAVDEEEEAVEERRNMRTIWVTGRKGLTEREAAALIVEEARMILQQDLVEMGVQWGSAGSAAGSGEFRNGFKDNSPISDTSFSLQLSQDGLQLTPASSSSESLSIIDVASDQNLFQTFIKEWRCKKRFSISLACEKIRSLTSSKTATIGSRFKQASSPQEIPIRDDGFPIKGCDDTLVVGLAVCWGGRDAYYFSLQKEQKHSEISASLVPPSLDPSLTLKDRMWYLQSCLRKESDKECSVVIYDFIQSYKILLLSCGISLEQSYEDPKVACWLLDPDSQEPTLHSIVTSFLPHELPLLEGMETSQGIQSLGLNAGSEHSGRYRASVESILIFNSMNQLNSLLQKENLQDVFRKVEMPSQYCLALLELNGIGFSTAECESQKHIMQAKLDAIETQAYQLAGHSFSFTSSDDIAEVLFLELKLPPNREMKNQGSKKTLGSTRRGIDNGRKLRLGRQFSTSKDVLNKLKALHPLPGLILEWRRITNAITKVVFPLQREKCLNPFLGMERIYPVSQSHTATGRITFTEPNIQNVPRDFEIKMPTLVGESPPSQAVGKGLLPMGRGKYKKGFSVNPRCQAQMEERAADRGMPFSISMRHAFVPFPGGSILAADYSQLELRILAHLSHDRRLIQVLNTGADVFRSIAAEWKMIEPESVGDDLRQQAKQICYGIIYGMGAKSLGEQMGIKENDAACYIDSFKSRYTGINQFMTETVKNCKRDGFVQTILGRRRYLPGIKDNNPYRKAHAERQAINTIVQGSAADIVKIATVNIQKQLETFHSTFKSHGHREGMLQSDQTGLSRKRKLQGMFCPIRGGFFILQLHDELLYEVAEEDVVQVAQIVKNEMESAVKLSVKLKVKVKIGASWGELKDFDV
B2: UGT1A9 (Homo sapiens, UniProt O60656); chain GKLLVVPMDGSHWFTMRSVVEKLILRGHEVVVVMPEVSWQLGRSLNCTVKTYSTSYTLEDLDREFKAFAHAQWKAQVRSIYSLLMGSYNDIFDLFFSNCRSLFKDKKLVEYLKESSFDAVFLDPFDNCGLIVAKYFSLPSVVFARGILCHYLEEGAQCPAPLSYVPRILLGFSDAMTFKERVRNHIMHLEEHLLCHRFFKNALEIASEILQTPVTEYDLYSHTSIWLLRTDFVLDYPKPVMPNMIFIGGINCHQGKPLPMEFEAYINASGEHGIVVFSLGSMVSEIPEKKAMAIADALGKIPQTVLWRYTGTRPSNLANNTILVKWLPQNDLLGHPMTRAFITHAGSHGVYESICNGVPMVMMPLFGDQMDNAKRMETKGAGVTLNVLEMTSEDLENALKAVINDKSYKENIMRLSSLHKDRPVEPLDLAVFWVEFVMRHKGAPHLRPAAHDLTWYQYHSLDVIGFLLAVVLTVAFITFKCCAYGYRKCLGKKGRVKKAHKSKTH
B3: Reln 1948-2662 (Mus musculus, UniProt Q60841); chain DGNNLNNPVLLLDTFDFGPREDNWFFYPGGNIGLYCPYSSKGAPEEDSAMVFVSNEVGEHSITTRDLSVNENTIIQFEINVGCSTDSSSADPVRLEFSRDFGATWHLLLPLCYHSSSLVSSLCSTEHHPSSTYYAGTTQGWRREVVHFGKLHLCGSVRFRWYQGFYPAGSQPVTWAIDNVYIGPQCEEMCYGHGSCINGTKCICDPGYSGPTCKISTKNPDFLKDDFEGQLESDRFLLMSGGKPSRKCGILSSGNNLFFNEDGLRMLVTRDLDLSHARFVQFFMRLGCGKGVPDPRSQPVLLQYSLNGGLSWSLLQEFLFSNSSNVGRYIALEMPLKARSGSTRLRWWQPSENGHFYSPWVIDQILIGGNISGNTVLEDDFSTLDSRKWLLHPGGTKMPVCGSTGDALVFIEKASTRYVVTTDIAVNEDSFLQIDFAASCSVTDSCYAIELEYSVDLGLSWHPLVRDCLPTNVECSRYHLQRILVSDTFNKWTRITLPLPSYTRSQATRFRWHQPAPFDKQQTWAIDNVYIGDGCLDMCSGHGRCVQGSCVCDEQWGGLYCDEPETSLPTQLKDNFNRAPSNQNWLTVSGGKLSTVCGAVASGLALHFSGGCSRLLVTVDLNLTNAEFIQFYFMYGCLITPSNRNQGVLLEYSVNGGITWNLLMEIFYDQYSKPGFVNILLPPDAKEIATRFRWWQPRHDGLDQNDWAIDNVLIS
B4: metQ residues 17-271 N229A (Escherichia coli); chain SLALVGCGQDEKDPNHIKVGVIVGAEQQVAEVAQKVAKDKYGLDVELVTFNDYVLPNEALSKGDIDANAFQHKPYLDQQLKDRGYKLVAVGNTFVYPIAGYSKKIKSLDELQDGSQVAVPNDPTNLGRSLLLLQKVGLIKLKDGVGLLPTVLDVVENPKNLKIVELEAPQLPRSLDDAQIALAVINTTYASQIGLTPAKDGIFVEDKESPYVALIVTREDNKDAENVKKFVQAYQSDEVYEAANKVFNGGAVKGW
Chain of UniProt P45973 (whole entry, looked up): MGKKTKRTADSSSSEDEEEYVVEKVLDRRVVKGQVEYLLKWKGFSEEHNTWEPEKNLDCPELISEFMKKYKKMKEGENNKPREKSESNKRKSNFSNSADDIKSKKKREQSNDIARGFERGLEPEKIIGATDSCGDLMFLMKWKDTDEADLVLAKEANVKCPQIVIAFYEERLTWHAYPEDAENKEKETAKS
Chain of UniProt P26447 (whole entry, looked up): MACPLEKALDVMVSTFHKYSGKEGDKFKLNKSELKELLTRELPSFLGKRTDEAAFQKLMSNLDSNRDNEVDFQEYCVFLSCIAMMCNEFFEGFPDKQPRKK
Chain of UniProt P62258 (whole entry, looked up): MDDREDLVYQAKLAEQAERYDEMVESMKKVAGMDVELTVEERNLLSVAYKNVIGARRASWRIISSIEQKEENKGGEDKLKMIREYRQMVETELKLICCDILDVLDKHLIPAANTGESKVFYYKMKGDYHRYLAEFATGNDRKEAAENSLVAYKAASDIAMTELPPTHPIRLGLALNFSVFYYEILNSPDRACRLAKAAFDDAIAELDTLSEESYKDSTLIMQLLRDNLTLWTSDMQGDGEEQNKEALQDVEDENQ

With `B1` the Kd was 210 nM (POLD1/POLD2/POLD3/POLD4 holoenzyme (Homo sapiens); MST; room temperature).
With `B2 (UGT1A9)` the Vmax was 7.36e-05 µmol/min/mg (O=C1[C@H](CC[C@H](O)c2ccc(F)cc2)[C@@H](c2ccc(O)cc2)N1c1ccc(F)cc1; steady-state kinetics; pH 7.4, 37 °C).
With `ARTKQTARKSTGGK (histone H3 2-15 (Homo sapiens, UniProt P68431); K9me3; sequence looked up)` the Kd was 11600 ± 1200 nM (CBX5, C-terminal Atto532 label, C-terminal amide (Homo sapiens, UniProt P45973); MST; peptide).
`CKNYKKTEV (CRIPT C-terminal PBM; cyclic Lys-Glu lactam)` has a Kd of 384 nM (DLG4; SPR; peptide; pH 7.5, NaCl 100 mM).
The Kd of `B3 (Reln 1948-2662)` is reported as 33 nM (LRP8 ectodomain, lacking LA4-6 (Homo sapiens); SPR; low calcium, steady-state affinity, together with: Ca2+ 3 µM).
`S100A4, S-glutathionylated, QSY 35 on amines (Homo sapiens, UniProt P26447)` gave a Kd of 24 nM (SRXN1 C99S, Alexa 546 label (Homo sapiens); FRET; apparent, with EGTA).
`ribosomes whole ribosome (Rattus norvegicus)` gave a Kd of 6.33 ± 0.73 nM (CRIP3 active 22-286 del163-164/del167-189 (Zea mays, UniProt P28522); SPR; ribosomes).
The Kd of `CGSFPPWVKKTEV (peptide; cyclic)` is reported as 65.3 nM (DLG4; SPR; peptide).
With `ARLYHSLLPAA (designed peptide)` the Kd was 540 ± 10 nM (YWHAE (Homo sapiens, UniProt P62258); FP; peptide).
`B4 (metQ residues 17-271 N229A)` has a Kd of 27 ± 9 nM (metN/metI E166Q (Escherichia coli); MST; pH 8.5, 25 °C, NaCl 100 mM, together with: ATP 1 mM).

A few entries again:
The Kd of `B3 (Reln 1948-2662)` is reported as 33 nM (LRP8 ectodomain, lacking LA4-6 (Homo sapiens); SPR; low calcium, steady-state affinity, together with: Ca2+ 3 µM).
